# Measurements collected from several papers.
# Each line is one published result; not all experiments were run side by side. ± gives the spread as reported.
# OPRM1: Mu-type opioid receptor (OPRM1, Homo sapiens, UniProt P35372)
# Replicase polyprotein 1a papain-like protease: Replicase polyprotein 1a, papain-like protease (Severe acute respiratory syndrome coronavirus 2, UniProt P0DTC1)
# bglR: Beta-glucuronidase (bglR, Clostridium perfringens, UniProt Q8XP19)
# OPG122: mRNA-decapping protein OPG122 (OPG122, Vaccinia virus, UniProt P04312)
SMILES,tested on,test,test system,setting,measurement,value
CC[C@H](C)[C@@H]1NC(=O)[C@@H]2CSSC[C@H](NC(=O)[C@H](CCCNC(=N)N)NC(=O)[C@@H]3CSSC[C@H](NC1=O)C(=O)N[C@@H]([C@@H](C)O)C(=O)N[C@@H](CCCNC(=N)N)C(=O)NCC(=O)N[C@@H](Cc1ccccc1)C(=O)N3)C(=O)N[C@@H](CC(C)C)C(=O)N[C@H]1CSSC[C@H](NC(=O)[C@H](C(C)C)NC(=O)CNC(=O)[C@H](CCCNC(=N)N)NC(=O)[C@H](CCCNC(=N)N)NC1=O)C(=O)N[C@@H](CCCNC(=N)N)C(=O)N2,"Lethal factor (Bacillus anthracis, UniProt P15917)","enzyme activity, inhibitor",,,IC50,384 ± 33 nM
CC(C)C[C@H](NC(=O)[C@H](CO[C@@H]1O[C@H](CO)[C@@H](O[C@@H]2O[C@H](CO)[C@H](O)[C@H](O)[C@H]2O)[C@H](O)[C@H]1O)NC(=O)[C@H](CCCCN)NC(=O)[C@H](CC(C)C)NC(=O)[C@H](C)NC(=O)[C@H](CCCCN)NC(=O)[C@H](CCC(=O)O)NC(=O)C(C)(C)NC(=O)[C@H](CC(C)C)NC(=O)[C@H](CC(N)=O)NC(=O)[C@@H]1CCCN1C(=O)[C@H](CC(C)C)NC(=O)[C@H](Cc1ccccc1)NC(=O)CNC(=O)[C@H](NC(=O)[C@@H](N)Cc1ccc(O)cc1)[C@H](C)O)C(N)=O,OPRM1,radioligand displacement,CHO membranes,"60 min, pH 7.5, 25 °C, added: 0.25 nM [3H]DAMGO",Ki,13 ± 0.54 nM
Cc1ccc(N2CCC(N(C)C)CC2)cc1C(=O)NC1(c2ccc3c4c(cccc24)CC3)CC1,Replicase polyprotein 1a papain-like protease,"enzyme activity, inhibitor",,,IC50,115 nM
Cc1cc(O)cc(O)c1C(=O)O[C@@H]1CC2=C(COC(/C=C/CO)=C2)C(=O)[C@]1(C)O,"Neuraminidase (NA, Influenza A virus, UniProt Q6DPL2)",,influenza A virus H5N1,,IC50,233000 ± 5700 nM
C1CCc2c(c(N3CCNCC3)nc3sc4c(N5CCNCC5)nnnc4c23)C1,bglR,,,,IC50,32 ± 2 nM
O=C(O)c1ccccc1N=NC(=NNc1cc(S(=O)(=O)O)ccc1O)c1ccccc1,"Ba71V-97, DNA complex (African swine fever virus, UniProt P42494)","enzyme activity, inhibitor",,,IC50,25100 ± 1300 nM
CC(C)C[C@@H]1NC(=O)[C@H](CCCNC(=N)N)NC(=O)[C@@H]2CCCN2C(=O)[C@@H]2CSSC[C@H](NC(=O)CNC(=O)[C@@H]3CCCN3C(=O)[C@H](CCCCN)NC(=O)[C@H](CC(=O)O)NC(=O)[C@@H](NC(=O)CN)C(C)C)C(=O)N[C@@H](CCCNC(=N)N)C(=O)N[C@@H](Cc3ccc(O)cc3)C(=O)N[C@@H](CC(C)C)C(=O)N[C@@H](Cc3ccccc3)C(=O)NCC(=O)NCC(=O)N[C@H]3CSSC[C@H](NC(=O)CNC1=O)C(=O)N[C@@H](CCCCN)C(=O)NCC(=O)N[C@@H](CCCCN)C(=O)NCC(=O)N[C@@H](Cc1c[nH]cn1)C(=O)N[C@@H](CC(=O)O)C(=O)N[C@@H](Cc1ccc(O)cc1)C(=O)N[C@H](C(=O)N[C@@H](C)C(=O)N[C@@H](Cc1c[nH]c4ccccc14)C(=O)N[C@@H](CC(=O)O)C(=O)NCC(=O)N[C@H](C(=O)N[C@@H](Cc1ccccc1)C(=O)N[C@@H](CO)C(=O)N[C@@H](CC(=O)O)C(=O)O)[C@@H](C)O)CSSC[C@H](NC(=O)[C@H](CC(=O)O)NC(=O)[C@H](CC(=O)O)NC(=O)[C@H](CC(=O)O)NC(=O)[C@H](CO)NC(=O)[C@H](CCCCN)NC3=O)C(=O)N2,"Sodium channel protein type 1 subunit alpha (SCN1A, Homo sapiens, UniProt P35498)","peak sodium current, inhibitor, automated patch clamp",HEK293,"holding potential -80 mV, added: 0.1 % BSA",IC50,550 nM
c1cn(Cc2ccc(-c3ccc4occc4c3)cc2)cn1,"Mycocyclosin synthase (cyp121, Mycobacterium tuberculosis, UniProt P9WPP7)","substrate depletion, inhibitor, LC-MS/MS",,added: cYY 20 µM,IC50,19000 nM
C1CCc2c(c(N3CCOCC3)nc3sc4c(N5CCCNCC5)nnnc4c23)C1,bglR,,,,IC50,2000 ± 100 nM
C[n+]1cn(C2OC(COP(=O)(O)OP(=O)(O)OP(=O)(O)OCC3OC(n4cnc5c(=O)[nH]c(N)nc54)C(O)C3O)C(O)C2O)c2nc(N)[nH]c(=O)c21 (stereo not drawn),OPG122,inhibitor,,,IC50,69000 nM
CC[C@H](C)[C@H](NC(=O)[C@H](C)NC(=O)[C@H](CCC(=O)O)NC(=O)[C@H](CCC(=O)O)NC(=O)[C@H](CC(C)C)NC(=O)[C@H](CCCCN)NC(=O)[C@H](CCCCN)NC(=O)[C@H](CCSC)NC(=O)[C@H](CCC(=O)O)NC(=O)[C@H](Cc1ccc(O)cc1)NC(=O)[C@H](CCC(=O)O)NC(=O)[C@H](CC(C)C)NC(=O)[C@H](CC(=O)O)NC(=O)[C@H](CC(C)C)NC(=O)[C@H](Cc1ccccc1)NC(=O)[C@@H](NC(=O)[C@@H](NC(=O)[C@H](CC(N)=O)NC(=O)[C@@H](NC(=O)[C@H](CCC(N)=O)NC(=O)[C@H](CC(=O)O)NC(=O)[C@H](CC(C)C)NC(=O)[C@H](CO)NC(=O)CNC(=O)[C@H](CC(C)C)NC(=O)[C@H](CC(=O)O)NC(=O)[C@@H](N)C(C)C)[C@@H](C)CC)C(C)C)[C@@H](C)O)C(=O)N[C@@H](CCCCN)C(=O)N[C@@H](CCCCN)C(=O)N[C@@H](CC(C)C)C(=O)N[C@@H](CCC(=O)O)C(=O)N[C@@H](CCC(=O)O)C(=O)N[C@@H](CO)C(=O)N[C@@H](Cc1ccc(O)cc1)C(=O)N[C@H](C(=O)N[C@@H](CC(=O)O)C(=O)N[C@@H](CC(C)C)C(=O)N[C@@H](CCCCN)C(=O)N[C@@H](CCC(=O)O)C(=O)N[C@@H](CC(C)C)C(=O)O)[C@@H](C)CC,"Spike glycoprotein, Beta variant (Severe acute respiratory syndrome coronavirus 2, UniProt P0DTC2)",viral replication,SARS-CoV-2,,IC50,39.2 nM
Cc1ccc(N2CCN(C)CC2)cc1C(=O)NC1(c2ccc3c4c(cccc24)CC3)CC1,Replicase polyprotein 1a papain-like protease,cell-free assay,,,IC50,18.2 nM
CCC(C(=O)Nn1cccc1)n1cc(F)cc2nc(SCc3ccc(F)cc3)nc1-2 (stereo not drawn),"Replicase polyprotein 1ab, papain-like protease (rep, Middle East respiratory syndrome-related coronavirus, UniProt K9N7C7)","enzyme activity, inhibitor",,,IC50,> 100000 nM
Nc1nc2c(ncn2C2OC(COP(=O)(O)OP(=O)(O)O)C(O)C2O)c(=O)[nH]1 (stereo not drawn),OPG122,,,,IC50,171000 nM
CC1=C(C(=O)O)C(c2ccccc2Br)NC(=S)N1 (stereo not drawn),"Angiotensin-converting enzyme 2, with SARS-CoV-2 spike RBD (ACE2, Homo sapiens, UniProt Q9BYF1)",inhibitor,,,IC50,18.4 ± 1.05 nM
CC(C)C[C@H](NC(=O)[C@H](CO)NC(=O)[C@H](CCCCN)NC(=O)[C@H](CC(C)C)NC(=O)[C@H](C)NC(=O)[C@H](CCCCN)NC(=O)[C@H](CCC(=O)O)NC(=O)CNC(=O)[C@H](CC(C)C)NC(=O)[C@H](CC(N)=O)NC(=O)[C@@H]1CCCN1C(=O)[C@H](CC(C)C)NC(=O)[C@H](Cc1ccccc1)NC(=O)CNC(=O)[C@H](NC(=O)[C@@H](N)Cc1ccc(O)cc1)[C@H](C)O)C(N)=O,OPRM1,radioligand displacement,CHO membranes,"60 min, pH 7.5, 25 °C, added: 0.25 nM [3H]DAMGO",Ki,13 ± 1.2 nM
Nc1ncnc2c1ncn2C1OC(COP(=O)(O)OP(=O)(O)O)C(O)C1O (stereo not drawn),OPG122,,,,IC50,188000 nM
CC[C@H](C)[C@@H]1NC(=O)[C@H](CCCNC(=N)N)NC(=O)[C@H](CO)NC(=O)[C@H](CCC(=O)O)NC(=O)[C@H](CC(=O)O)NC(=O)CNC(=O)CNC(=O)[C@H]([C@@H](C)O)NC(=O)[C@H](Cc2ccccc2)NC(=O)[C@H](CO)NC(=O)[C@H]([C@@H](C)O)NC(=O)[C@H](C)NC(=O)[C@@H]2CSSC[C@@H](C(=O)N[C@@H](Cc3ccc(O)cc3)C(=O)N[C@@H](Cc3ccccc3)C(=O)N[C@H](C(=O)N[C@H](C(=O)NCC(=O)O)[C@@H](C)O)[C@@H](C)O)NC(=O)[C@H]([C@@H](C)O)NC(=O)[C@H](CSSC[C@H](NC(=O)[C@H](CCC(=O)O)NC(=O)[C@H](CO)NC(=O)[C@H](CCCCN)NC(=O)[C@H](Cc3ccc(O)cc3)NC(=O)[C@@H]3CCCN3C(=O)[C@H](Cc3ccccc3)NC(=O)[C@H](CCCCN)NC(=O)[C@H](CCCNC(=N)N)NC(=O)[C@H](CCCCN)NC(=O)[C@H](CCCCN)NC(=O)[C@H](Cc3ccc(O)cc3)NC(=O)[C@@H]3CCCN3C(=O)[C@@H](NC(=O)[C@H](CC(=O)O)NC(=O)[C@H](CCCCN)NC(=O)[C@H](CCCCN)NC(=O)[C@@H](NC(=O)[C@@H](NC(=O)[C@@H](N)CCC(=O)O)C(C)C)[C@@H](C)CC)[C@@H](C)O)C(=O)N[C@@H](CC(C)C)C(=O)N[C@@H](CCCCN)C(=O)N[C@@H](C)C(=O)N2)NC(=O)[C@H](CCCCN)NC(=O)[C@H](Cc2ccccc2)NC(=O)[C@H](Cc2ccccc2)NC(=O)CNC(=O)[C@@H]2CCCN2C(=O)[C@H](CCCCN)NC(=O)CNC(=O)[C@H](CCC(=O)O)NC(=O)[C@H](CCC(N)=O)NC1=O,"Potassium voltage-gated channel subfamily KQT member 4 (KCNQ4, Homo sapiens, UniProt P56696, D266G)","potassium current, whole-cell patch clamp",HEK-293T,,IC50,108000 ± 6300 nM
COc1cccc2[nH]c(C(=O)NC(CC(C)C)C(=O)NC(CC3CCCNC3=O)C(=O)COC(=O)c3c(C)cc(C)nc3C)cc12 (stereo not drawn),"Cathepsin B (CTSB, Homo sapiens, UniProt P07858)","enzyme activity, inhibitor, fluorescence",,"pH 5, with preincubation",IC50,437 nM
Nc1nc2c(ncn2C2OC(COP(=O)(O)O)C(O)C2O)c(=O)[nH]1 (stereo not drawn),OPG122,,,,IC50,> 200000 nM
CCC(CC)O[C@@H]1C=C(C(=O)O)C[C@H](NCc2ccc(-c3cnccn3)cc2)[C@H]1NC(C)=O,"Neuraminidase (NA, Influenza A virus, UniProt P03468)","enzyme activity, inhibitor",,,IC50,4500 nM
CCCCCCCCCCCCCCCC(=O)N[C@@H](CCC(=O)NCCOCCOCCC(=O)NCCOCCOCCC(=O)NCCCC[C@H](NC(=O)[C@H](CC(=O)O)NC(=O)[C@H](CC(C)C)NC(=O)[C@H](Cc1ccc(O)cc1)NC(=O)[C@H](CCCCN)NC(=O)[C@H](CO)NC(=O)[C@H](Cc1ccc(O)cc1)NC(=O)[C@H](CC(=O)O)NC(=O)[C@H](CO)NC(=O)[C@@H](NC(=O)[C@H](Cc1ccccc1)NC(=O)[C@@H](NC(=O)CNC(=O)[C@H](CCC(N)=O)NC(=O)[C@@H](CO)NC(=O)[C@@H](N)Cc1c[nH]cn1)[C@@H](C)O)[C@@H](C)O)C(=O)N[C@@H](CCCNC(=N)N)C(=O)N[C@@H](CCCNC(=N)N)C(=O)N[C@@H](C)C(=O)N[C@@H](CCC(N)=O)C(=O)N[C@@H](CC(=O)O)C(=O)N[C@@H](Cc1ccccc1)C(=O)N[C@H](C(=O)N[C@@H](CCC(N)=O)C(=O)N[C@@H](Cc1c[nH]c2ccccc12)C(=O)N[C@@H](CC(C)C)C(=O)N[C@@H](CC(C)C)C(=O)N[C@@H](CC(N)=O)C(=O)N[C@H](C(=O)NCC(=O)NCC(=O)N1CCC[C@H]1C(=O)N[C@@H](CO)C(=O)N[C@@H](CO)C(=O)NCC(=O)N[C@@H](C)C(=O)N1CCC[C@H]1C(=O)N1CCC[C@H]1C(=O)N1CCC[C@H]1C(=O)N[C@@H](CO)C(N)=O)[C@@H](C)O)C(C)C)C(=O)O,,measured: ALT,"rhesus monkey, female","subcutaneous, 20 µg/kg once daily, 28 days",serum enzyme activity,41 ± 7.4 U/L
CC(C)C[C@H](NC(=O)[C@H](CC(=O)O)NC(=O)[C@H](Cc1ccc(O)cc1)NC(=O)[C@H](CCCCN)NC(=O)[C@@H]1CSSC[C@@H]2NC(=O)[C@H](CCCCN)NC(=O)[C@H](CC(=O)O)NC(=O)[C@H](CC(N)=O)NC(=O)[C@H](CO)NC(=O)[C@@H]3CCCN3C(=O)[C@H](CC(N)=O)NC(=O)[C@@H]3CSSC[C@H](NC(=O)[C@H](C(C)C)NC(=O)[C@H](CC(C)C)NC(=O)[C@H](CO)NC(=O)[C@H](CO)NC(=O)[C@H](CO)NC(=O)[C@H](CCCCN)NC(=O)[C@H](CSSC[C@H](NC(=O)[C@H](C)N)C(=O)N[C@@H](CC(C)C)C(=O)NCC(=O)N[C@@H](CCCCN)C(=O)NCC(=O)N[C@@H](CCC(=O)O)C(=O)N[C@@H](CCCCN)C(=O)N3)NC2=O)C(=O)N[C@@H](CO)C(=O)N[C@@H](CCC(N)=O)C(=O)N[C@@H](CCCCN)C(=O)N[C@@H](Cc2c[nH]cn2)C(=O)N[C@@H](CCCCN)C(=O)N[C@@H](Cc2c[nH]c3ccccc23)C(=O)N1)C(=O)O,"Sodium channel protein type 9 subunit alpha (SCN9A, Homo sapiens, UniProt Q15858)","ion current, inhibitor, patch clamp",,,IC50,> 20000 nM
CC[C@H](C)[C@H](NC(=O)[C@H](CCCCN)NC(=O)[C@H](Cc1ccccc1)NC(=O)[C@H](CC(=O)O)NC(=O)[C@@H](NC(=O)[C@H](CC(N)=O)NC(=O)[C@@H](N)CO)[C@@H](C)CC)C(=O)N[C@@H](CCCCN)C(=O)N[C@@H](CCCCN)C(=O)O,"HLA class I histocompatibility antigen, A alpha chain, allele A*29:02 (Homo sapiens, UniProt P04439)",biochemical,,,IC50,> 10000 nM
